# Experimental data from different studies.
# Lines come from different studies, so protocols differ. Numbers after ± are the reported error.
# Target: Metallo-beta-lactamase type 2 (Serratia marcescens, UniProt P52699)
# Chain of UniProt P52699 (whole entry, looked up): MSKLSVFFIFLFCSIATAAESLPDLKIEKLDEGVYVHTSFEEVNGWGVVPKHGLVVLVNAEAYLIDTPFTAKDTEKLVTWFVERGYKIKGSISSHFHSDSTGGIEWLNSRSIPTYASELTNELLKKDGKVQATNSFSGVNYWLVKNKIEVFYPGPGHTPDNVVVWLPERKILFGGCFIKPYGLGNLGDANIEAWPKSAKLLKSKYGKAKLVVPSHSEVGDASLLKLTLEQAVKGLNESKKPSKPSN
# Action: inhibitor
Compound,test,conditions,IC50
CN[C@H](CC(C)C)C(=O)N[C@H]1C(=O)N[C@@H](CC(N)=O)C(=O)N[C@H]2C(=O)N[C@H]3C(=O)N[C@H](C(=O)N[C@H](C(=O)O)c4cc(O)cc(O)c4-c4cc3ccc4O)[C@H](O)c3ccc(c(Cl)c3)Oc3cc2cc(c3O[C@@H]2O[C@H](CO)[C@@H](O)[C@H](O)[C@H]2O[C@H]2C[C@](C)(NCc3ccc(C(=O)OCCCCCCN(Cc4ccccn4)Cc4ccccn4)cc3)[C@H](O)[C@H](C)O2)Oc2ccc(cc2Cl)[C@H]1O,"enzyme activity, nitrocefin absorbance",added: nitrocefin,4 ± 1.7 µM
CC(C)C(=O)Nc1cccc(-c2nn[nH]n2)c1,,"10 min preincubation, added: FC5 substrate",> 100 µM
CN(C)c1ccc2c(c1)C(=O)N(C(CS)C(N)=O)C2=O (stereo not drawn),enzyme activity,"pH 7.0, added: chromacef 25 µM",0.51 ± 0.07 µM
O=C(O)c1ncsc1-c1ccccc1,,"10 min preincubation, added: FC5 fluorogenic substrate",57.5 µM
C[C@H](CS)C(=O)Nc1ccccc1-c1nnn(Cc2ccccc2)n1,,"10 min preincubation, added: FC5 substrate",1.36 µM
O=C(O)C(c1ccccc1)n1cnnn1 (stereo not drawn),,"10 min preincubation, added: FC5 fluorogenic substrate",526 µM
Cn1nnc(-c2ccccc2NC(=O)CCS)n1,,"10 min preincubation, added: FC5 substrate",4.68 µM
CC(C)C1=CCC(C(=O)O)C(C(=O)O)C1 (stereo not drawn),,"10 min preincubation, added: FC5 fluorogenic substrate",49.8 µM
O=C(O)c1cccc(CP(=O)(O)O)n1,enzyme activity,"10 min preincubation, added: nitrocefin substrate",3.88 µM

# Some of these lines once more:
Compound,test,conditions,IC50
C[C@H](CS)C(=O)Nc1ccccc1-c1nnn(Cc2ccccc2)n1,,"10 min preincubation, added: FC5 substrate",1.36 µM
